Measurements pooled from the literature.
Each line is one published result; not all experiments were run side by side. “And” joins repeats or separate records; there may be more than shown.
UniProt P33261, sequence (whole entry, looked up): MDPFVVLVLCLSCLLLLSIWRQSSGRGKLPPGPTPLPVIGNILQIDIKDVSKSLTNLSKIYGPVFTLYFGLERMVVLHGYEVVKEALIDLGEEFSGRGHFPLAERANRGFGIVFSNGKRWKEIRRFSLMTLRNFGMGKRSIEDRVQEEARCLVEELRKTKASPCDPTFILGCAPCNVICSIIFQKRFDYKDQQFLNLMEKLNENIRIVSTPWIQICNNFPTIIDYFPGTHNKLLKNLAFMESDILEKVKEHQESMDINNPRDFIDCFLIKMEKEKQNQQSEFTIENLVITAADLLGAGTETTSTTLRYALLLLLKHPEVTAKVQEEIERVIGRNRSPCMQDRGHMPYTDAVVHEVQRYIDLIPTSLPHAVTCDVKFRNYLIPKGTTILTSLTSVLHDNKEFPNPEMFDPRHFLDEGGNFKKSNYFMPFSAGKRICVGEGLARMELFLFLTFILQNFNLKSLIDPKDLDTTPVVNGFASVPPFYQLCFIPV
UniProt Q8TF76, sequence (whole entry, looked up): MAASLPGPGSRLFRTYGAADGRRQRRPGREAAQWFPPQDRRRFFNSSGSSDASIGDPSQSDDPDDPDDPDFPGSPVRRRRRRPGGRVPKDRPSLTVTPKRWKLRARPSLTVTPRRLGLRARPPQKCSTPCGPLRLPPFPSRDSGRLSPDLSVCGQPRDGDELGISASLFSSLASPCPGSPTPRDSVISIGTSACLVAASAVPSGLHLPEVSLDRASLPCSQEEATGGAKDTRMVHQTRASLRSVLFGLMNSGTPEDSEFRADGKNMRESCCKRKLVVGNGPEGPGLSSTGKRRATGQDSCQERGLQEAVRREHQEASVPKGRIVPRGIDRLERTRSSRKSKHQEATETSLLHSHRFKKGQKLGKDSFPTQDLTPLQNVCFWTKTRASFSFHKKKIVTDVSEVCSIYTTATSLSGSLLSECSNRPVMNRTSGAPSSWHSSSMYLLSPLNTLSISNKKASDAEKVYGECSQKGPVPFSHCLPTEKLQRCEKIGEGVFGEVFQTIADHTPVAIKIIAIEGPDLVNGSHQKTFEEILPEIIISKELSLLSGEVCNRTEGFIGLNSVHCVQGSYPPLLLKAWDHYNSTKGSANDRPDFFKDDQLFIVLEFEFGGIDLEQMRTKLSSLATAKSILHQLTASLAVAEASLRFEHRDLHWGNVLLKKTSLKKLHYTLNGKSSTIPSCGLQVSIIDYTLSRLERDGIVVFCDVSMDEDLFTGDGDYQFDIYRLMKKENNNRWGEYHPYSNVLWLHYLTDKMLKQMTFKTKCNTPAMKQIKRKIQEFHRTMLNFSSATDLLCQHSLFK

Cc1nn(-c2cccc(N)c2)c(=O)c2cnc(Nc3ccc(N4CCNCC4)cc3)nc12 — IC50 (Serine/threonine-protein kinase haspin (HASPIN, Homo sapiens, UniProt Q8TF76); enzyme activity, inhibitor): > 10 µM
OC(Cc1cc(-c2ccc(C(O)C(F)(F)F)s2)sc1-c1ccc(-c2sc(-c3ccc(C(O)C(F)(F)F)s3)cc2CC(O)C(F)(F)F)s1)C(F)(F)F (stereo not drawn) — amount in cell extract (primary human fetal neurons; LC-MS/MS; 4 µM, 15 min, replicate 1): 0.47 nmol and 0.63 nmol and 0.36 nmol
Cc1ncsc1-c1ccc(C(C)NC(=O)C2CC(O)CN2C(=O)C(NC(=O)CCCCCCCCCCN2CCCC(Nc3ncc(Cl)c(Nc4ccccc4S(=O)(=O)C(C)C)n3)C2)C(C)(C)C)cc1 (stereo not drawn) — log2 fold change (22Rv1; RNA-seq, item: ZNF471 mRNA; concentration not given; reference: DMSO): -1.58
CC(C)OCCOCc1ccc(OCC(O)CN(N=O)C(C)C)cc1 (stereo not drawn) — revertant fold increase (Escherichia coli; Ames test; WP2 uvrA; 158 µg/plate, without metabolic activation; reference: solvent control): 1.1 fold
CN(Cc1ccccc1)C(=O)CN1CCN(CC(=O)[O-])CCN(Cc2cccc(C(=O)[O-])n2)CC1.[44Sc+3] — tracer uptake (mouse, blood; intravenous, 1 h): 0.39 %ID/g
CNC(=O)C1CCCN(C(=O)C2CC3CCC2N3C(=O)[C@@H]2C[C@@H](O)CN2C(=O)NCc2cccc(Cl)c2F)C1 (mixture of isomers) — remaining activity (Cytochrome P450 2C19 (CYP2C19, Homo sapiens, UniProt P33261); enzyme activity, inhibitor, time-dependent inhibition; 0.206 µM, preincubated with NADPH; reference: negative control): 116%
C=CC(=O)Nc1cccc(Cn2ncc3cnc(Nc4cnn(CCOC)c4)nc32)c1 — percent of control (SLK human; binding, KINOMEscan; 100 nM; lower = stronger binding): 84%
CCN(CC)CC#CCNc1ccnc2cc(Cl)ccc12 — revertants per well (Salmonella typhimurium; mini-Ames test; TA100; 62.5 µg/well, without S9): 23
O=C1C2CC3CC1CC(C(=O)N1CCN(c4ccc([N+](=O)[O-])c5ncccc45)CC1)(C3)C2 — mean revertant colonies (Salmonella typhimurium; Ames test; TA98; 0.02 µg/well, with S9): 8 colonies/well
Nc1nc(-c2cccc(C(F)(F)F)c2)nc2[nH]nc(Nc3ccccc3)c12 — CC50 (HeLa Ohio; 72 h): 13.2 µM
Nc1ncc(-c2cc(-c3cnn(CC(F)(F)F)c3)ncc2F)nc1C(=O)NC1CNCC(F)C1 (stereo not drawn) — remaining binding (STK36; KINOMEscan; 1 µM; reference: DMSO control): 97%
Nc1nc(-c2ccccc2)nc2[nH]nc(NC3CCCCC3)c12 — CC50 (HeLa Ohio; 72 h): > 162 µM
COC1CN([C@H]2CC[C@H]([C@@]3(C)Oc4c(Cl)cc(C(=O)NCc5c(SC)cc(C)[nH]c5=O)c(C)c4O3)CC2)C1 — log2 fold change (RNA-seq, item: LZTFL1 mouse homolog; mouse, HT-1376 xenograft, whole blood; dose not given; reference: vehicle): 0.0614
Cc1cccc(Nc2n[nH]c3nc(-c4ccccc4)nc(N)c23)c1 — CC50 (HeLa Ohio; 72 h): 87.5 µM
O=C([O-])CN1CCN(CC(=O)[O-])CCN(Cc2cccc(C(=O)[O-])n2)CC1.[177Lu+3] — tracer uptake (mouse, blood; intravenous, 1 h): 0.47 %ID/g

Excerpt of the above:
O=C([O-])CN1CCN(CC(=O)[O-])CCN(Cc2cccc(C(=O)[O-])n2)CC1.[177Lu+3] — tracer uptake (mouse, blood; intravenous, 1 h): 0.47 %ID/g
OC(Cc1cc(-c2ccc(C(O)C(F)(F)F)s2)sc1-c1ccc(-c2sc(-c3ccc(C(O)C(F)(F)F)s3)cc2CC(O)C(F)(F)F)s1)C(F)(F)F (stereo not drawn) — amount in cell extract (primary human fetal neurons; LC-MS/MS; 4 µM, 15 min, replicate 1): 0.47 nmol and 0.63 nmol and 0.36 nmol
